Published values pooled from the literature.
Lines come from different studies, so protocols differ. Numbers after ± are the reported error.
APP: Amyloid-beta precursor protein (APP, Homo sapiens, UniProt P05067)
UniProt P05067, sequence (whole entry, looked up): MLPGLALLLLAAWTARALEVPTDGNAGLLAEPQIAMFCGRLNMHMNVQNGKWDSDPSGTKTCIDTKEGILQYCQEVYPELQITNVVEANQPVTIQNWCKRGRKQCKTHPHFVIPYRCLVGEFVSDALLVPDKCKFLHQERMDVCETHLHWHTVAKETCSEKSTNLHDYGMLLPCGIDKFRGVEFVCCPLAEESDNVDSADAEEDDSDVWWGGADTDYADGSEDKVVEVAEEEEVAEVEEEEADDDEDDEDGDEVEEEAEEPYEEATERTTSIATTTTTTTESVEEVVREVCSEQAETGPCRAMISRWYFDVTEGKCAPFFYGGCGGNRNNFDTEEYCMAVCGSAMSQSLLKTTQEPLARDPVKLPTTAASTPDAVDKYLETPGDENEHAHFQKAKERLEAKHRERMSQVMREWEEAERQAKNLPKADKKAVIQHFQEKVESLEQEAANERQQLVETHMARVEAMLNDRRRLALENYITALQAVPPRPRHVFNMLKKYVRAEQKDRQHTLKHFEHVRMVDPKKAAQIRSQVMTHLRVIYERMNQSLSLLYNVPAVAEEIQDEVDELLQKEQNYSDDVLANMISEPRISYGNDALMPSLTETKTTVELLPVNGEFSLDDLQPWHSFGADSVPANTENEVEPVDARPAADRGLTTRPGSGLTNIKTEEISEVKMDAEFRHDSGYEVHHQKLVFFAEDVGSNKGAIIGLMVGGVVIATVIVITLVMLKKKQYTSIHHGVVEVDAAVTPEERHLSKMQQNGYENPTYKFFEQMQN
APP Aβ42 fibrils: Amyloid-beta precursor protein, Aβ42 fibrils (APP, Homo sapiens, UniProt P05067)
APP Aβ40 fibrils: Amyloid-beta precursor protein, Aβ40 fibrils (APP, Homo sapiens, UniProt P05067)

COc1cc(/C=C/C(=O)C2=C(/C=C/c3ccc(O)c(OC)c3)NC(=O)NC2[c-]2cccc2)ccc1O.[Fe+2].c1cc[cH-]c1 (racemic) — IC50 (APP; amyloid aggregation, inhibitor, fluorescence; pH 6.9): 4 µM
CC(C)(C)N1Cc2cccc(n2)CN(C(C)(C)C)Cc2cccc(n2)C1.[Cu+2] — Ki (APP Aβ42 fibrils; amyloid-beta 42 binding, thioflavin T competition; pH 7.4): 7.78 ± 2.15 µM
COc1cc(/C=C/c2cc(-[c-]3cccc3)n(C(=O)c3ccccc3)n2)ccc1O.[Fe+2].c1cc[cH-]c1 — DC50 (APP Aβ40 fibrils; amyloid fibril disassembly, thioflavin T fluorescence; 24 h, 37 °C, with: 25 µM amyloid-beta): 12 ± 1 µM
Clc1ccc2c(c1)N(CCCN1CCN(CCn3cc(CN4CCCNCCN(Cc5cn(CCN6CCN(CCCN7c8ccccc8Sc8ccc(Cl)cc87)CC6)nn5)CCCNCC4)nn3)CC1)c1ccccc1S2.[Cu+2].[O-][Cl+3]([O-])([O-])[O-].[O-][Cl+3]([O-])([O-])[O-] — Kd (Amyloid-beta precursor protein, Aβ42 monomer (APP, Homo sapiens, UniProt P05067); aggregation kinetics fit): 7.4 µM
COC(=O)CN1CCN(Cc2cc(-c3nc4ccccc4s3)cc(OC)c2O)CCN(Cc2cc(-c3nc4ccccc4s3)cc(OC)c2O)CC1 — Ki (APP; ligand displacement, fluorescence): 0.86 µM
CCCC[C@@H]1NC(=O)[C@@H](CC(C)C)NC(=O)[C@H](CCCCN)NC(=O)[C@@H](CO)NC(=O)[C@H](Cc2c[nH]cn2)NC(=O)[C@@H](Cc2c[nH]c3ccccc23)NC1=O — Kd (Amyloid-beta precursor protein, fibril (APP, Homo sapiens, UniProt P05067); binding, SPR): 6 µM
COc1cc(-c2nc3ccccc3s2)cc(CN2CCN(Cc3cc(-c4nc5ccccc5s4)cc(OC)c3O)CCN(C(C)C)CC2)c1O — Ki (APP; ligand displacement, fluorescence): 1.3 µM
COc1cc(/C=C/c2cc(-[c-]3cccc3)[nH]n2)ccc1O.[Fe+2].c1cc[cH-]c1 — IC50 (APP; amyloid aggregation, inhibitor, fluorescence; pH 6.9): 13 µM
[Cu+2].c1cc2nc(c1)CSCc1cc(-c3nc4ccccc4s3)cc(n1)CSC2 — Ki (APP Aβ42 fibrils; amyloid-beta 42 binding, thioflavin T competition; pH 7.4): 0.53 ± 0.06 µM
COc1cc(-c2nc3ccccc3s2)cc(CN2Cc3cccc(n3)CN(Cc3cc(-c4nc5ccccc5s4)cc(OC)c3O)Cc3cccc(n3)C2)c1O — Kd (APP Aβ40 fibrils; amyloid-β fibril binding, direct fluorescence; Aβ 5 µM): 0.6 µM
CC(C)(C)N1Cc2cccc(n2)CN(C(C)(C)C)Cc2cc(-c3nc4ccccc4s3)cc(n2)C1 — Ki (APP Aβ42 fibrils; amyloid-beta 42 binding, thioflavin T competition; pH 7.4): 0.07 ± 0.03 µM
COc1cc(C=Cc2cc(-[c-]3cccc3)n(C(=O)[c-]3cccc3)n2)ccc1O.[Fe+2].[Fe+2].c1cc[cH-]c1.c1cc[cH-]c1 — IC50 (APP; amyloid aggregation, inhibitor, fluorescence; pH 6.9): 30 µM

A few entries again:
COc1cc(/C=C/C(=O)C2=C(/C=C/c3ccc(O)c(OC)c3)NC(=O)NC2[c-]2cccc2)ccc1O.[Fe+2].c1cc[cH-]c1 (racemic) — IC50 (APP; amyloid aggregation, inhibitor, fluorescence; pH 6.9): 4 µM
